# Measurements of several laboratories.
# Compare with care: the assays were run in different laboratories.
SMILES,organism,assay,test system,conditions,how to read,MIC
CC1C=CC=CC(C)C2C=CC3CC(C)(O)C(Cl)C(C)C3C2C(=O)C(Cl)(Cl)C(=O)C(C)C(=O)O1 (stereo not shown),Staphylococcus aureus,"microbial growth, broth dilution",NEWMAN,,,0.2 µg/mL
COc1ccccc1C(=O)O[C@H]1[C@H](C)[C@H](O)[C@H](C)[C@@H](O)[C@@H](C)/C=C/C=C(/C)C(=O)NC2=C3NC4(CCN(CC(C)C)CC4)N=C3c3c(c(O)c(C)c4c3C(=O)[C@@](C)(O/C=C/[C@H](OC)[C@H]1C)O4)C2=O,Mycobacteroides abscessus,,ATCC 19977 wild type,90% growth inhibition,,0.03 µM
COc1ccc2c3c(oc2c1CC=C(C)C)-c1cc(CC=C(C)C)c(O)cc1OC3,Streptococcus pyogenes,,ATCC 19615,,,inactive
CC(=O)N[C@H](CCCCN)C(=O)N[C@H](CC(C)C)C(=O)N[C@H](CCCCN)C(=O)N[C@H](CO)C(=O)N[C@H](CC(C)C)C(=O)N[C@H](CC(C)C)C(=O)N[C@H](CCCCN)C(=O)N[C@@H](C(=O)N[C@H](CC(C)C)C(=O)N[C@H](CO)C(=O)N[C@H](CCCCN)C(=O)N[C@H](C)C(=O)N[C@H](CCCCN)C(=O)N[C@H](CCCCN)C(=O)N[C@H](CCCCN)C(=O)N[C@H](CC(C)C)C(=O)N[C@H](CC(C)C)C(=O)N[C@H](CCCCN)C(=O)N[C@@H](C(=O)N[C@H](C)C(=O)N[C@H](CC(C)C)C(=O)N[C@H](CCCCN)C(=O)N[C@H](C)C(=O)N[C@H](CC(C)C)C(=O)N[C@H](CO)C(=O)N[C@H](CCCCN)C(N)=O)[C@H](C)O)[C@H](C)O,Acinetobacter baumannii,broth microdilution,ATCC 19606,"24 h, 37 °C",,0.7 µM
CC(C)=CCc1cc2c(cc1O)OC[C@H]1c3ccc(O)c(CC=C(C)C)c3O[C@@H]21,Streptococcus pyogenes,,ATCC 19615,,,2 µg/mL
CC[C@@H](C)[C@@H](NC(=O)[C@@H](C)NC(=O)[C@@H](CCCCN)NC(=O)[C@@H](CC(C)C)NC(=O)[C@@H](CC(C)C)NC(=O)[C@H](NC(=O)[C@@H](CCCCN)NC(=O)[C@@H](CC(C)C)NC(=O)[C@@H](CCCCN)NC(=O)[C@@H](CCCCN)NC(=O)[C@@H](CCCCN)NC(=O)[C@@H](CCCCN)NC(=O)[C@@H](C)NC(=O)[C@@H](CCCCN)NC(=O)[C@@H](CO)NC(=O)[C@@H](Cc1ccccc1)NC(=O)[C@H](NC(=O)[C@@H](CCCCN)NC(=O)[C@@H](CC(C)C)NC(=O)[C@@H](Cc1ccccc1)NC(=O)[C@@H](CO)NC(=O)[C@@H](CCCCN)NC(=O)[C@@H](Cc1c[nH]c2ccccc12)NC(=O)[C@@H](CCCCN)NC(C)=O)[C@H](C)O)[C@H](C)O)C(=O)N[C@H](CO)C(=O)N[C@H](CCCCN)C(N)=O,Acinetobacter baumannii,,"899, Mueller-Hinton broth","24 h, 37 °C",,0.6 µM
CC(C)C[C@H](NC(=O)[C@H](CC(N)=O)NC(=O)[C@H](CCCNC(=N)N)NC(=O)[C@@H](CC(C)C)NC(=O)[C@H](Cc1ccccc1)NC(=O)[C@H](CC(=O)O)NC(=O)[C@H](CCCCN)NC(=O)[C@@H](CC(C)C)NC(=O)[C@H](CCCNC(=N)N)NC(=O)[C@H](CCC(N)=O)NC(=O)[C@@H](NC(=O)[C@@H](CC(C)C)NC(=O)[C@H](CCCNC(=N)N)NC(=O)[C@H](CCCCN)NC(=O)[C@H](Cc1ccccc1)NC(=O)CN)C(C)C)C(=O)N[C@H](C(N)=O)C(C)C,"Staphylococcus aureus, Enterococcus faecium, Klebsiella pneumoniae, Pseudomonas aeruginosa",,,,no inhibition up to value,≥ 100 µM
COc1ccc([C@@H]2CC(=O)c3c(O)cc(O[C@@H]4O[C@H](CO[C@@H]5O[C@@H](C)[C@H](O)[C@@H](O)[C@H]5O)[C@@H](O)[C@H](O)[C@H]4O)cc3O2)cc1O,Trichophyton mentagrophytes,microbial growth,,,,12.5 µM
CCC(CC)C(=O)O[C@H]1[C@H](C)[C@H](O)[C@H](C)[C@@H](O)[C@@H](C)/C=C/C=C(/C)C(=O)NC2=C3NC4(CCN(CC(C)C)CC4)N=C3c3c(c(O)c(C)c4c3C(=O)[C@@](C)(O/C=C/[C@H](OC)[C@H]1C)O4)C2=O,Mycobacteroides abscessus,,ATCC 19977 wild type,90% growth inhibition,,1.15 µM
CN[C@@H]1[C@H](O)[C@H](NC)[C@H]2O[C@]3(O)[C@H](O[C@@H]2[C@H]1O)O[C@H](C)C[C@@]3(O)CNCCc1ccccc1,Mycobacteroides abscessus,microbial growth,ATCC19977,5 days,,4 µg/mL
CN(C)c1cc(CNCc2ccc(O)cc2)c(O)c2c1C[C@H]1C[C@H]3[C@H](N(C)C)C(O)=C(C(N)=O)C(=O)[C@@]3(O)C(O)=C1C2=O,Enterococcus faecium,,"494, Tet M and Tet L",,,8 µg/mL
COc1ccc2c(c1CC=C(C)C)O[C@H]1c3cc(CC=C(C)C)c(O)cc3OC[C@@H]21,Streptococcus pyogenes,,ATCC 19615,,,128 µg/mL
CO[C@H]1/C=C/O[C@@]2(C)Oc3c(C)c(O)c4c(c3C2=O)C2=NC3(CCN(CC(C)C)CC3)NC2=C(NC(=O)/C(C)=C\C=C\[C@H](C)[C@H](O)[C@@H](C)[C@@H](O)[C@@H](C)[C@H](OC(=O)c2cccc(C)c2)[C@@H]1C)C4=O,Mycobacteroides abscessus,,ATCC 19977 wild type,90% growth inhibition,,0.075 µM
CN[C@@H]1[C@H](O)[C@H](NC)[C@H]2O[C@]3(O)[C@H](O[C@@H]2[C@H]1O)O[C@H](C)C[C@@]3(O)CNCCc1nccs1,Mycobacteroides abscessus,microbial growth,ATCC19977,5 days,,4 µg/mL
CC(=O)N[C@H](CCCCN)C(=O)N[C@H](CC(C)C)C(=O)N[C@H](CCCCN)C(=O)N[C@H](CO)C(=O)N[C@H](CC(C)C)C(=O)N[C@H](CC(C)C)C(=O)N[C@H](CCCCN)C(=O)N[C@@H](C(=O)N[C@H](CC(C)C)C(=O)N[C@H](CO)C(=O)N[C@H](CCCCN)C(=O)N[C@H](C)C(=O)N[C@H](CCCCN)C(=O)N[C@H](CCCCN)C(=O)N[C@H](CCCCN)C(=O)N[C@H](CCCCN)C(=O)N[C@H](CC(C)C)C(=O)N[C@H](CCCCN)C(=O)N[C@@H](C(=O)N[C@H](CC(C)C)C(=O)N[C@H](CC(C)C)C(=O)N[C@H](CCCCN)C(=O)N[C@H](C)C(=O)N[C@H](CC(C)C)C(=O)N[C@H](CO)C(=O)N[C@H](CCCCN)C(N)=O)[C@H](C)O)[C@H](C)O,Acinetobacter baumannii,,"821, Mueller-Hinton broth","24 h, 37 °C",,0.3 µM
O=C(NCc1nc(-c2ccc(Br)cc2)c[nH]1)Nc1ncc(Sc2ccccn2)s1,Streptococcus pyogenes,broth microdilution,ATCC 19615,without verapamil,,0.125 µM
CN[C@@H]1[C@H](O)[C@H](NC)[C@H]2O[C@]3(O)[C@H](O[C@@H]2[C@H]1O)O[C@H](C)C[C@@]3(O)CNCCc1ccc(F)cc1,Streptococcus,,,,as low as,1.6 µg/mL
CCCCCCCCCCCC[S+]([O-])CC1OC(OC2C(N)CC(N)C(OC3OC(CN)C(O)CC3N)C2O)C(O)C(N)C1O (mixture of isomers),Streptococcus mutans,,UA159,,,9.4 µg/mL
CO[C@H]1/C=C/O[C@@]2(C)Oc3c(C)c(O)c4c(c3C2=O)C2=NC3(CCN(CC(C)C)CC3)NC2=C(NC(=O)/C(C)=C\C=C\[C@H](C)[C@H](O)[C@@H](C)[C@@H](O)[C@@H](C)[C@H](OC(=O)c2cccnc2)[C@@H]1C)C4=O,Mycobacteroides abscessus,,ATCC 19977 wild type,90% growth inhibition,,0.024 µM
CC(C)=CCc1cc([C@@H]2CC(=O)c3ccc(O)c(CC=C(C)C)c3O2)c(O)c(CC=C(C)C)c1O,Streptococcus pyogenes,,ATCC 19615,,,inactive
CN(C)c1cc(CNCc2ccco2)c(O)c2c1C[C@H]1C[C@H]3[C@H](N(C)C)C(O)=C(C(N)=O)C(=O)[C@@]3(O)C(O)=C1C2=O,Enterococcus faecium,,"494, Tet M and Tet L",,,0.5 µg/mL
CCCCCCCCCCCCCCCCCCCCCCSCC1OC(OC2C(N)CC(N)C(OC3OC(CN)C(O)CC3N)C2O)C(O)C(N)C1O (stereo not shown),Streptococcus pyogenes,,M12 MGAS9429,,,> 150 µg/mL
C=CCNCc1cc(N(C)C)c2c(c1O)C(=O)C1=C(O)[C@]3(O)C(=O)C(C(N)=O)=C(O)[C@@H](N(C)C)[C@@H]3C[C@@H]1C2,Enterococcus faecium,,"494, Tet M and Tet L",,,2 µg/mL
N#Cc1ccc(-c2c[nH]c(CNC(=O)Nc3ncc(Sc4ccccn4)s3)n2)cc1,Streptococcus pyogenes,broth microdilution,ATCC 19615,together with: verapamil 50 µg/mL,,0.125 µM
CCC(C)C(=O)OC1C(C)C(OC)C=COC2(C)Oc3c(C)c(O)c4c(c3C2=O)C2=NC3(CCN(CC(C)C)CC3)NC2=C(NC(=O)C(C)=CC=CC(C)C(O)C(C)C(O)C1C)C4=O (mixture of isomers),Mycobacteroides abscessus,,ATCC 19977 wild type,90% growth inhibition,,1.1 µM

# Some of these lines once more:
SMILES,organism,assay,test system,conditions,how to read,MIC
N#Cc1ccc(-c2c[nH]c(CNC(=O)Nc3ncc(Sc4ccccn4)s3)n2)cc1,Streptococcus pyogenes,broth microdilution,ATCC 19615,together with: verapamil 50 µg/mL,,0.125 µM
CO[C@H]1/C=C/O[C@@]2(C)Oc3c(C)c(O)c4c(c3C2=O)C2=NC3(CCN(CC(C)C)CC3)NC2=C(NC(=O)/C(C)=C\C=C\[C@H](C)[C@H](O)[C@@H](C)[C@@H](O)[C@@H](C)[C@H](OC(=O)c2cccnc2)[C@@H]1C)C4=O,Mycobacteroides abscessus,,ATCC 19977 wild type,90% growth inhibition,,0.024 µM
CC[C@@H](C)[C@@H](NC(=O)[C@@H](C)NC(=O)[C@@H](CCCCN)NC(=O)[C@@H](CC(C)C)NC(=O)[C@@H](CC(C)C)NC(=O)[C@H](NC(=O)[C@@H](CCCCN)NC(=O)[C@@H](CC(C)C)NC(=O)[C@@H](CCCCN)NC(=O)[C@@H](CCCCN)NC(=O)[C@@H](CCCCN)NC(=O)[C@@H](CCCCN)NC(=O)[C@@H](C)NC(=O)[C@@H](CCCCN)NC(=O)[C@@H](CO)NC(=O)[C@@H](Cc1ccccc1)NC(=O)[C@H](NC(=O)[C@@H](CCCCN)NC(=O)[C@@H](CC(C)C)NC(=O)[C@@H](Cc1ccccc1)NC(=O)[C@@H](CO)NC(=O)[C@@H](CCCCN)NC(=O)[C@@H](Cc1c[nH]c2ccccc12)NC(=O)[C@@H](CCCCN)NC(C)=O)[C@H](C)O)[C@H](C)O)C(=O)N[C@H](CO)C(=O)N[C@H](CCCCN)C(N)=O,Acinetobacter baumannii,,"899, Mueller-Hinton broth","24 h, 37 °C",,0.6 µM
CN(C)c1cc(CNCc2ccco2)c(O)c2c1C[C@H]1C[C@H]3[C@H](N(C)C)C(O)=C(C(N)=O)C(=O)[C@@]3(O)C(O)=C1C2=O,Enterococcus faecium,,"494, Tet M and Tet L",,,0.5 µg/mL
